# Measured values of several laboratories.
# Lines come from different studies, so protocols differ.
# Target: Lysine-specific histone demethylase 1A (KDM1A, Homo sapiens, UniProt O60341)
Compound,read-out,mode,method,quantity,result
CCCSc1nc(Sc2nnnn2C)c2nnn(CCCN3CCOCC3)c2n1,enzyme activity,inhibitor,fluorescence,IC50,2.09 µM
NCCCCN(CCCN)CCCN,enzyme activity,inhibitor,absorbance,Ki,> 50 µM
C[C@@H]1O[C@@H](OC[C@H]2O[C@@H](OCCc3ccc(O)c(O)c3)[C@H](O)[C@@H](O)[C@@H]2OC(=O)/C=C/c2ccc(O)c(O)c2)[C@H](O)[C@H](O)[C@H]1O,binding,,SPR,Kd,5.2 µM
COc1ccccc1Nc1nc(SCc2cn(CC(=O)NC(=O)Nc3ccccn3)nn2)nc(-c2ccc(C(C)C)cc2)c1C#N,enzyme activity,inhibitor,fluorescence,IC50,> 10 µM
Brc1ccc(Cn2nnc3c(Sc4nnnn4-c4ccccc4)nc(SCc4ccccc4)nc32)cc1,enzyme activity,inhibitor,fluorescence,IC50,0.41 µM
C/C(=N\NC(=O)c1cccc(S(=O)(=O)N2CCOCC2)c1)c1cc(Cl)ccc1O,cell-free assay,inhibitor,TR-FRET,IC50,2.5 µM
COc1cc(-c2nc(SCc3cn(CC(=O)NC(=O)Nc4ccccn4)nn3)nc(Nc3cccc(C(F)(F)F)c3)c2C#N)cc(OC)c1OC,enzyme activity,inhibitor,fluorescence,IC50,0.387 µM
COc1ccc(CCCN[C@H]2CCC[C@@H]2CN[C@@H]2CCC[C@H]2CNCCCCN[C@@H]2CCC[C@H]2CN)cc1,enzyme activity,inhibitor,,Ki,4.2 µM
C#CCSc1nc(Nc2ccc(Cl)cc2)c(C#N)c(-c2ccccc2)n1,enzyme activity,inhibitor,fluorescence,IC50,> 64 µM
NCCCC[N+](CCCN)(CCCN)CCCN,enzyme activity,inhibitor,absorbance,Ki,29 µM
CCCSc1nc(Sc2nnnn2C)c2ncn(Cc3ccccc3)c2n1,enzyme activity,inhibitor,fluorescence,IC50,> 10 µM

# Excerpt of the above:
Compound,read-out,mode,method,quantity,result
COc1ccccc1Nc1nc(SCc2cn(CC(=O)NC(=O)Nc3ccccn3)nn2)nc(-c2ccc(C(C)C)cc2)c1C#N,enzyme activity,inhibitor,fluorescence,IC50,> 10 µM
